Experimental data collected from several papers.
Compare with care: the assays were run in different laboratories. Several values in a cell are separate wells, animals, samples, runs or records. Numbers after ± are the reported error.
Methionyl-tRNA synthetase, putative: Methionyl-tRNA synthetase, putative (Trypanosoma brucei brucei, UniProt Q38C91)
CELF1 del215-384: CUGBP Elav-like family member 1 (CELF1, Homo sapiens, UniProt Q92879, del215-384)
UniProt Q92879, sequence (whole entry, unmodified, looked up): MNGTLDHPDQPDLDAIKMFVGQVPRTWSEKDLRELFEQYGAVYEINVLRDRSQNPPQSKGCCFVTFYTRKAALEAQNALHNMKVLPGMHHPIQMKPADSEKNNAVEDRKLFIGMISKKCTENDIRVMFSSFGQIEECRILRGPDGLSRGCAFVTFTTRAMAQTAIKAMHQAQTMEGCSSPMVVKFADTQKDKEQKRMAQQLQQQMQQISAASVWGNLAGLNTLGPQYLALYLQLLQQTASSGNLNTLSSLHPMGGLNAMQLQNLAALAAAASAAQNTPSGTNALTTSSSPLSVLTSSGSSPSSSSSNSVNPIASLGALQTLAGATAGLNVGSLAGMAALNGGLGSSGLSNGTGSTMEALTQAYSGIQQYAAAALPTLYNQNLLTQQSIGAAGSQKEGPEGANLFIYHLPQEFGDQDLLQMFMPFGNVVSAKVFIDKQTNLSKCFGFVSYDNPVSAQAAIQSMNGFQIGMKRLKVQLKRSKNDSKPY
UniProt Q06187, sequence (whole entry, looked up): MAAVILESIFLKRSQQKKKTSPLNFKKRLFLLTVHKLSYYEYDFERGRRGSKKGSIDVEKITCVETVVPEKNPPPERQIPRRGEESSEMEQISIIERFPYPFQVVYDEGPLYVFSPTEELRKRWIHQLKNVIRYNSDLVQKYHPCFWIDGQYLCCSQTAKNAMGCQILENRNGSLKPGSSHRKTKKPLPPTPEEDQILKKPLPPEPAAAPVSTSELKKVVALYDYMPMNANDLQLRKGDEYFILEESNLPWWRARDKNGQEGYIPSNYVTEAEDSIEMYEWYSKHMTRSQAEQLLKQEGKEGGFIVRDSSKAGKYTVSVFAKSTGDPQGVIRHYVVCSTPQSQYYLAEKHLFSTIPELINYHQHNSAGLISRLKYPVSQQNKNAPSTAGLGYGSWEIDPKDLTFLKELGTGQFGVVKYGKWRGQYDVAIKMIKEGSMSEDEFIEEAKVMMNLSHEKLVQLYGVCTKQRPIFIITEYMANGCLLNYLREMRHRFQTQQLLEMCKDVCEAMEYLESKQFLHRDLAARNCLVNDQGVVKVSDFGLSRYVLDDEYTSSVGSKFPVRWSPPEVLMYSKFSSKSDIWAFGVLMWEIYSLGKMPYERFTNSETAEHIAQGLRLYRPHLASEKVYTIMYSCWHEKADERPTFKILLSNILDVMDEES
UniProt O60656, sequence (whole entry, looked up): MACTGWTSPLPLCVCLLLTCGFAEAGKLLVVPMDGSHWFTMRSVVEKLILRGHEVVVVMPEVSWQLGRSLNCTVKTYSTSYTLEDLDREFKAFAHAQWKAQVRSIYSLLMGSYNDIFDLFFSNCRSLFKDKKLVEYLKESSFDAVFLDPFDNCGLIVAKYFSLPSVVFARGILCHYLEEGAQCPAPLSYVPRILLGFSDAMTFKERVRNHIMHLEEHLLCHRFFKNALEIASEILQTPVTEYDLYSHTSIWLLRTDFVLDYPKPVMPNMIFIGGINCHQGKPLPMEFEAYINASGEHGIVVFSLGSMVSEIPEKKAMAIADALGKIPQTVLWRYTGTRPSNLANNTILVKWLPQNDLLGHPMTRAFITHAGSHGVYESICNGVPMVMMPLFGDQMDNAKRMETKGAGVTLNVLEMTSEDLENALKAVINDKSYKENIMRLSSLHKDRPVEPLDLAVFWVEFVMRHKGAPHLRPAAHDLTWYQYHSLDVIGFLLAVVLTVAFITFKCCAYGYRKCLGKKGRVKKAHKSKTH
UniProt P08648, sequence (whole entry, looked up): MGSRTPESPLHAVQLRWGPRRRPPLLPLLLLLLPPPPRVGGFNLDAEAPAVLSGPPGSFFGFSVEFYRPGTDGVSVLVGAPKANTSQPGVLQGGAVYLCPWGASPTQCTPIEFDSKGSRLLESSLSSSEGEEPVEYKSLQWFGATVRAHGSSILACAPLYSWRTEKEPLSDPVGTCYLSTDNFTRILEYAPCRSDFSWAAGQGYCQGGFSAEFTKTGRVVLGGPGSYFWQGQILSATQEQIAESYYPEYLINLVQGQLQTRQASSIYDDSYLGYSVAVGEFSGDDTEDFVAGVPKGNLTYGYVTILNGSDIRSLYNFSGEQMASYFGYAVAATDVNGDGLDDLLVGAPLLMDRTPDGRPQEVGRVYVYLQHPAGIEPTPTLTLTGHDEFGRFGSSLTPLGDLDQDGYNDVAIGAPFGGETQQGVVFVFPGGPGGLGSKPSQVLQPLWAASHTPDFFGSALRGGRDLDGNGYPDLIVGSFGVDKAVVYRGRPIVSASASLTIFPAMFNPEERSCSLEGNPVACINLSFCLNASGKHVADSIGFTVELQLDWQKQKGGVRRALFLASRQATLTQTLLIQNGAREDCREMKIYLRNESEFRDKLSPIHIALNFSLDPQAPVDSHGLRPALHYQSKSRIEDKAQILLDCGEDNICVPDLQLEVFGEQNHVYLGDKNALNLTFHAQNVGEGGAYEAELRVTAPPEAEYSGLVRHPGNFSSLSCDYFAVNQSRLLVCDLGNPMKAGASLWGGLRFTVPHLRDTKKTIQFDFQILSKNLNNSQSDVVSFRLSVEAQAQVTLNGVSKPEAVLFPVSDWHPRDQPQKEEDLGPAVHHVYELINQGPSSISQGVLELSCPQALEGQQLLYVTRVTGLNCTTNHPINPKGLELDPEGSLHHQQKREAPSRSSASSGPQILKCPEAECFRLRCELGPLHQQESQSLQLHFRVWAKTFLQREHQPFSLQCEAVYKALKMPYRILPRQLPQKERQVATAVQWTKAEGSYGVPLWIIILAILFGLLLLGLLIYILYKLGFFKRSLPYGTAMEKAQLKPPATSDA
UniProt O94900, sequence (whole entry, looked up): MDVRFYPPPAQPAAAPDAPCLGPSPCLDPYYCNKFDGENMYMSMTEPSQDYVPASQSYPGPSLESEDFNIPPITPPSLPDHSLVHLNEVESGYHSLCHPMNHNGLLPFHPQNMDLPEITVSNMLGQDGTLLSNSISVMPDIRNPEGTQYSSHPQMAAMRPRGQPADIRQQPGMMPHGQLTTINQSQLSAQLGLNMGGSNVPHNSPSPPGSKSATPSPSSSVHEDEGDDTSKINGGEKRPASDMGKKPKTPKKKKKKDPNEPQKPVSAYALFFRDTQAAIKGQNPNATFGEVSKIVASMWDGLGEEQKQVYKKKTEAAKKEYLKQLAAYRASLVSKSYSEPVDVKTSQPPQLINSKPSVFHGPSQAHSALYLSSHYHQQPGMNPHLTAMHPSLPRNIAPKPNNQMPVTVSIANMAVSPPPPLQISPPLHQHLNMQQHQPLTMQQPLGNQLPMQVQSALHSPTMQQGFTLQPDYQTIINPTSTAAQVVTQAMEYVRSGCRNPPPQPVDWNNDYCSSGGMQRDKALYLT
UniProt P32745, sequence (whole entry, looked up): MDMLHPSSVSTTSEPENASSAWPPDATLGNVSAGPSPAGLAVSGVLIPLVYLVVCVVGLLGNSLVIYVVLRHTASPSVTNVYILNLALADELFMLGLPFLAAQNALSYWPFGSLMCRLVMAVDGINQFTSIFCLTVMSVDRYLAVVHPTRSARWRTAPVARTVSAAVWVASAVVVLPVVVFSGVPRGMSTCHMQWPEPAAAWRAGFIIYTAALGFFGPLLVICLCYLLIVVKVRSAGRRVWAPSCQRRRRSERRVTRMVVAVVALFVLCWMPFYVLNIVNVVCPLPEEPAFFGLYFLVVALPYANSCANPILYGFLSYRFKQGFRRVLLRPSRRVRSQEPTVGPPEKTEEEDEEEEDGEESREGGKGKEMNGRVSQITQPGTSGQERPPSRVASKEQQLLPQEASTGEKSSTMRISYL
UniProt P28065, sequence (whole entry, looked up): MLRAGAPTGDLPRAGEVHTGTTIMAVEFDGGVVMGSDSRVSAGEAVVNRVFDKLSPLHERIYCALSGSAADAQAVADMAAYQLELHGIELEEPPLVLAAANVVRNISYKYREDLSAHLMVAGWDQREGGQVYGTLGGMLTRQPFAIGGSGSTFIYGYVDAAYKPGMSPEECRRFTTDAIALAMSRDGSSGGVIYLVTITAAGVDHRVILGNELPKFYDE
UniProt Q9UJS0, sequence (whole entry, looked up): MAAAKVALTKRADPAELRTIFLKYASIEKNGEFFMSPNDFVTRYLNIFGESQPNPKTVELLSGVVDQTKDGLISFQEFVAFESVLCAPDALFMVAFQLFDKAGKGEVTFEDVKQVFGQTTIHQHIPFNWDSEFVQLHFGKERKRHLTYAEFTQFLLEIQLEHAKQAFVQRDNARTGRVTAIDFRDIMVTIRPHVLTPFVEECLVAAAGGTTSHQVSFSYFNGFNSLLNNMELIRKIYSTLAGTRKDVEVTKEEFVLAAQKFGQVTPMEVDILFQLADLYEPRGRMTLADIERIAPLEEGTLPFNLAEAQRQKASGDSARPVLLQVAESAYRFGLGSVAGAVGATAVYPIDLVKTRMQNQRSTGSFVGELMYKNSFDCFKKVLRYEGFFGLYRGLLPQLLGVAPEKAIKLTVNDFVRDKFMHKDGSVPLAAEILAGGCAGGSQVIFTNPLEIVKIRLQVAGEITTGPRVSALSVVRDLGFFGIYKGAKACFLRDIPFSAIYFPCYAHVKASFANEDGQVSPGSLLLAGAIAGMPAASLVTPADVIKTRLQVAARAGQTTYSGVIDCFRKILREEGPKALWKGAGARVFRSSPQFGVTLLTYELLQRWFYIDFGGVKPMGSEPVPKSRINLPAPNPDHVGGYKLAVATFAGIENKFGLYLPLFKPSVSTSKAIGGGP
UniProt P35346, sequence (whole entry, unmodified, looked up): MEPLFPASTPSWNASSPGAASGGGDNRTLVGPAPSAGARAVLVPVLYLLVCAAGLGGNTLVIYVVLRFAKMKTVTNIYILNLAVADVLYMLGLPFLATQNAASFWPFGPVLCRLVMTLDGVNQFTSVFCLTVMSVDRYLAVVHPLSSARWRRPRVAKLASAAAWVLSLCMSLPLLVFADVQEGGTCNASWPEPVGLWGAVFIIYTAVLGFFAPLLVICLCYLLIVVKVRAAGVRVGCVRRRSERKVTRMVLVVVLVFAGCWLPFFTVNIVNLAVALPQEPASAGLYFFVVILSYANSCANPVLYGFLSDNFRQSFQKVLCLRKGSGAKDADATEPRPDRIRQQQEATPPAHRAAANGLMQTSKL

| Compound | target | test | test system | conditions | how to read | IC50 |
| --- | --- | --- | --- | --- | --- | --- |
| Cc1nn(-c2cccc(N)c2)c(=O)c2cnc(Nc3ccc(N4CCNCC4)cc3)nc12 | Protein kinase C beta type, isoform beta-II (PRKCB, Homo sapiens, UniProt P05771) | inhibitor | – | PKCβII isoform | – | 3120 nM |
| NCC1CCN(c2nc(-c3ccncc3)nc3c(C#CCO)cccc23)CC1 | LATS1 (Homo sapiens, UniProt O95835) | enzyme activity, inhibitor, radiometric | – | – | – | 42 nM |
| COc1ccc(-c2ccc(-c3cn(C(=O)N4CCCCC4c4ccccc4)nn3)cc2)cc1 (centres unmarked) | Diacylglycerol lipase-beta (Homo sapiens, UniProt Q8NCG7) | enzyme activity, inhibitor | – | – | – | > 10000 nM |
| C[C@@H](CNCc1cc(Cl)cc(Cl)c1)CNc1nc2cccnc2[nH]1 | Methionyl-tRNA synthetase, putative | enzyme activity, inhibitor | – | – | – | < 10 nM |
| Cc1ccc(N=C2CC(=O)c3sc(C)nc3C2=O)cc1 | CARM1 (Homo sapiens, UniProt Q86X55) | enzyme activity, inhibitor | – | – | – | 1500 nM |
| CC(=S)NCCCC[C@H](NC(=O)OCc1ccccc1)C(=O)N[C@@H](Cc1c[nH]c2ccccc12)C(=O)NC(C)C | SIRT1 (Homo sapiens, UniProt Q96EB6) | enzyme activity, inhibitor | – | – | – | 1400 nM |
| N#Cc1c(N)nc2c(c1-c1cccs1)Cc1cc(O)ccc1-2 | Thymocyte selection-associated high mobility group box protein TOX, with KAT7 (Homo sapiens, UniProt O94900) | TOX-KAT7 binding, inhibitor, ELISA | – | – | no inhibition at 10 µM | 9900 nM |
| CC(=O)N[C@@H](Cc1ccc([N+](=O)[O-])cc1)C(=O)N[C@@H]1CSSC[C@@H](C(=O)N[C@H](Cc2ccc(O)cc2)C(N)=O)NC(=O)[C@H]([C@@H](C)O)NC(=O)[C@H](CCCCN)NC(=O)[C@@H](Cc2c[nH]c3ccccc23)NC(=O)[C@H](Cc2ccc(O)cc2)NC1=O | SSTR3 (Homo sapiens, UniProt P32745) | ligand displacement, radioligand | – | – | – | ~1000 nM |
| Cc1c(COc2cc(OCc3cccc(C#N)c3)c(CNC(CO)(CO)CO)cc2Cl)cccc1-c1cccc(OCCCCCC(=O)NO)c1 | Programmed cell death 1 ligand 1, with PD-1 (CD274, Homo sapiens, UniProt Q9NZQ7) | PD-1/PD-L1 binding, inhibitor, HTRF | – | – | – | 12.5 nM |
| Fc1cc2nc(NCCCNCc3cc(Cl)cc(Cl)c3)[nH]c2cc1F | Methionyl-tRNA synthetase, putative | enzyme activity, inhibitor | – | – | – | < 10 nM |
| Sc1nc[nH]n1 | CELF1 del215-384 | CELF1-RNA binding, inhibitor, fluorescence polarization | – | CELF1 20 nM, with: RNA 10 nM | – | 980 ± 110 nM |
| C[C@H](CCC(=O)NCCS(=O)(=O)O)[C@H]1CC[C@H]2[C@@H]3CC[C@@H]4C[C@H](OS(=O)(=O)O)CC[C@]4(C)[C@H]3CC[C@]12C | SLC25A13 (Homo sapiens, UniProt Q9UJS0) | aspartate/glutamate exchange | proteoliposomes | 1 min, with: [14C]Asp 1 mM, Glu 20 mM inside | – | 117000 ± 14500 nM |
| Cc1nn(-c2ccc(S(N)(=O)=O)cc2)c(C)c1CCC(=O)Nc1cccc(OCc2cn(C)nn2)c1 | CA9 (Homo sapiens, UniProt Q16790) | enzyme activity, inhibitor | – | – | – | 11.7 nM |
| Cc1c[nH]c2nccc(-c3ccc(C(=O)N[C@@H]4c5c(F)cc(C(F)F)cc5C[C@@H]4O)cn3)c12 | PRKACB (Homo sapiens, UniProt P22694) | enzyme activity, inhibitor | – | – | – | 0.7 nM |
| O=C1NCCC12CCN(c1c(Cl)cncc1-c1ccc(N3CCOCC3)cc1)CC2 | Cyclin-dependent kinase 19, with cyclin C (CDK19, Homo sapiens, UniProt Q9BWU1) | ligand displacement | – | – | – | 8 nM |
| CCn1nc(Cl)c2c1-c1cnc(N)c(c1)O[C@H](C)c1cc(F)ccc1-c1nn(C)cc1C2 | TEK (Homo sapiens, UniProt Q02763) | enzyme activity, inhibitor, radiometric | – | – | – | 460 nM |
| CC[C@H](C)[C@H](NC(=O)[C@H](CCCNC(=N)N)NC(=O)[C@@H]1CCCN1C(=O)[C@H](CC(C)C)NC(=O)[C@@H](N)CCCCN)C(=O)N[C@@H](CCCNC(=N)N)C(=O)N[C@@H](CC(C)C)C(=O)O | B1 bradykinin receptor (Rattus norvegicus, UniProt P97583) | ligand displacement, radioligand | – | cell membranes | – | 320 nM |
| O=C(CCl)c1ccccc1Nc1cccc(C(F)(F)F)c1 | TEAD4 (Homo sapiens, UniProt Q15561) | thiol conjugation, inhibitor, CPM | – | pH 6.5 | – | 6880 nM |
| Cc1nc2ccccc2c(=O)n1N | Prothrombin (F2, Homo sapiens, UniProt P00734) | enzyme activity, inhibitor | – | – | – | 79900 nM |
| O=C(O)c1ccc2c3n(nc2c1)[C@@H]1[C@H](CO3)N(CC2CC2)[C@@]2(C(=O)Nc3cc(Cl)ccc32)[C@H]1c1cccc(Cl)c1F | Protein Mdm4, with p53 (MDM4, Homo sapiens, UniProt O15151, C17S) | MDMX-p53 binding, inhibitor, AlphaScreen | – | – | – | 9120 nM |
| CCOc1cc(CN2CCC3(CC2)CN(c2ccc(C(=O)O)cc2)C(=O)N3)c(C2CC2)cc1C | SSTR5 (Homo sapiens, UniProt P35346, F264A) | cAMP level, antagonist, GloSensor | AD293 | F264A mutant, bandwidth 6.51, with: CST17 EC80 and forskolin | – | 9.77 nM |
| Sc1nnc(-c2cccs2)[nH]1 | CELF1 del215-384 | CELF1-RNA binding, inhibitor, fluorescence polarization | – | 20 nM CELF1, with: 10 nM RNA | – | 320 ± 30 nM |
| Cc1cc(C(=O)Nc2nc3cccc(C)c3n2[C@H]2CCCCN(C(=O)/C=C/CN(C)C)C2)ccn1 | BTK (Homo sapiens, UniProt Q06187) | enzyme activity, inhibitor, HTRF | – | – | – | 2 nM and 2.5 nM |
| C[C@H](NC(=O)c1cccc(NC2=NCC(F)CN2)c1)C(=O)NC[C@H](NC(=O)c1c(Cl)cc(-c2ccccc2)cc1Cl)C(=O)O (relative stereo) | Integrin alpha-5/beta-1 (Homo sapiens, UniProt P05556+P08648) | cell adhesion, inhibitor | SW480 | with: fibronectin 0.3 µg/mL | – | 20000 nM |
| CCCC(=O)OC1CCC2(C)C(CCC3(C)C2CC=C2C4C(C)C(C)CCC4(C(=O)O)CCC23C)C1(C)C (centres unmarked) | UGT1A9 (Homo sapiens, UniProt O60656) | enzyme activity, inhibitor | – | – | – | > 100000 nM |
| CC(C)C[C@H](NC(=O)[C@H](Cc1ccc(CN)cc1)NC(=O)[C@H](Cc1ccccc1)N=[N+]=[N-])C(=O)N[C@@H](CC1CCC2CCCCC2C1)C(=O)[C@@]1(C)CO1 (some centres unmarked) | PSMB5 (Homo sapiens, UniProt P28074) | competitive ABPP | Raji cell lysate | – | – | > 10000 nM |
| CS(=O)(=O)c1ccc(-c2cc(Cl)c(C(=O)N[C@@H](CNC(=O)CNC(=O)c3cccc(NC(=N)N)c3)C(=O)O)c(Cl)c2)cc1 | Integrin alpha-V/beta-5 (Homo sapiens, UniProt P06756+P18084) | cell adhesion, inhibitor | SW480 | with: vitronectin 1 µg/mL | – | 100000 nM |
| CC(C)C[C@H](NC(=O)c1ccccc1)C(=O)N[C@@H](CC(C)C)C(=O)N[C@H](/C=C/S(C)(=O)=O)Cc1ccc(CN)cc1 | Proteasome subunit beta type-9 (Homo sapiens, UniProt P28065) | competitive ABPP | Raji cell lysate | – | – | > 10000 nM |
| CCCCCCC1CCC/C1=N\NC(N)=S (centres unmarked) | Scavenger receptor class B member 1 (Mus musculus, UniProt Q61009) | HDL binding, enhancer | ldlA[mSR-BI] cells | with: Alexa488-HDL | – | 90 nM |

A few entries again:
| Compound | target | test | test system | conditions | how to read | IC50 |
| --- | --- | --- | --- | --- | --- | --- |
| COc1ccc(-c2ccc(-c3cn(C(=O)N4CCCCC4c4ccccc4)nn3)cc2)cc1 (centres unmarked) | Diacylglycerol lipase-beta (Homo sapiens, UniProt Q8NCG7) | enzyme activity, inhibitor | – | – | – | > 10000 nM |
| C[C@@H](CNCc1cc(Cl)cc(Cl)c1)CNc1nc2cccnc2[nH]1 | Methionyl-tRNA synthetase, putative | enzyme activity, inhibitor | – | – | – | < 10 nM |
